Published values from different studies.
Numbered parts are unrelated; each lists some results of a single study.

Block 1
Target: Ras GTPase-activating protein-binding protein 1, full length (G3BP1, Homo sapiens, UniProt Q13283)
Chain of UniProt Q13283 (whole entry, looked up): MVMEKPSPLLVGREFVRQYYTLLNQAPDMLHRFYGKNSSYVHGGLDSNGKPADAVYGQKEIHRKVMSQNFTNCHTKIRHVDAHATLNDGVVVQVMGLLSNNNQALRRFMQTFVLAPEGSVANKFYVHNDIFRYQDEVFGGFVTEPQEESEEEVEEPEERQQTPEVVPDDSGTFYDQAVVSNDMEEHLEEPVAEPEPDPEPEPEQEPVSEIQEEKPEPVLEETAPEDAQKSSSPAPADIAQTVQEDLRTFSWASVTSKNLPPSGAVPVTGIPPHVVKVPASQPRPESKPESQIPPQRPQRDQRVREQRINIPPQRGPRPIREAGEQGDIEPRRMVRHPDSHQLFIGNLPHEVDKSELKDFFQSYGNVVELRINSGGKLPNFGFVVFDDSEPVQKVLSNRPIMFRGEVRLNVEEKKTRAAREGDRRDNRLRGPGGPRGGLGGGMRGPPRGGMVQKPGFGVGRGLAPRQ
Technique: RNA Bind-n-Seq
Form: RNA
Medium: in vitro
Tested at: 200 nM
Setting: whole 134-nt RNA, ends assumed
Together with: 150 mM KCl
Baseline: input library
Direction: higher = stronger binding
Quantity: log2 enrichment
Shared flanks, not repeated: GGGAGUUCUACAGUCCGACGAUC … UGGAAUUCUCGGGUGUCAAGG
UCAAGUCCUGUGCUACACAUCGUAUGUACCGAAUCGGGGUUGGGUUGGGUUGGGGAAAGUAUUAUGUUACGCCGUUCGGAUCUGCACUUC: 0.942
CCUCAAGUCCUGUGCUACACAUCGUAUGUACCGAAUCGGGGCGGGCGGCGGGAAAGUAUUAUGUUACGCCGUUCGGAUCUGCACUUCCAG: 0.409
CAAGUCCUGUGCUACACAUCGUAUGUACCGAAUCGGUUUUGGUUUUGGUUUUGGGGAAAGUAUUAUGUUACGCCGUUCGGAUCUGCACUU: -0.971
UGGGAGGUGGAUUUUGUUUAUUUUUUUAGCUCAUUUCCAGGGGUGGGAAUUUUUUUUCAAUAUGUGUCAUGAAUAAAGUUGUUUUUGAAA: 0.0891
GCAGGAAGUAAAAACAAAUGGAAAUGCUUCGGAUAGUGGCAGCGGUGGGGGUUGCUAAGGAAAGGGUGGGAUGGGAGUGGGUAAAGAGUU: 1.05
UAAUUGAAGAACCCAUUUUGCUCAUUUUAGGCAUCGUUAAAGAAUCUGGAGUGAAGCACAAGGGAUUGAUUGAAAUACCCAAUCUUUCUG: 0.228

Block 2
Target: Centromere-binding protein 1, full length, N-terminal tag (CBF1, Saccharomyces cerevisiae, UniProt P17106, residues 1-351)
Chain of UniProt P17106 (whole entry, looked up): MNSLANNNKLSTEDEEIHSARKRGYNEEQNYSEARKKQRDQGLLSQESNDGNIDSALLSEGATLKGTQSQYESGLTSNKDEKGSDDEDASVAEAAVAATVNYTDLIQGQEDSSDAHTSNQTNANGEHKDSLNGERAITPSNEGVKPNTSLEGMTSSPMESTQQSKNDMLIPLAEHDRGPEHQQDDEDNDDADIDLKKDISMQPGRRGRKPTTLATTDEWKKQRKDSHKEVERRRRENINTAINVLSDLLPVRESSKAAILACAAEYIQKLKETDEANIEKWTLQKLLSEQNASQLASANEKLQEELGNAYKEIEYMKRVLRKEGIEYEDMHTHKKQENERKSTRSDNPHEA
Technique: protein-binding microarray
Form: double-stranded DNA, one strand shown
Medium: in vitro
Tested at: 0.8 µM
Setting: whole 60-bp probe, no competitor
Direction: higher = stronger binding
Quantity: fluorescence intensity
Shared flanks, not repeated: … GTCTTGATTCGCTTGACGCTGCTG
GAATTTGGATGCTCTCATATGATTTTCCCTTCTTAG: 501 a.u.
CTAATTAATGAAAGTCACAGGAGACATTTTTACTTC: 583 a.u.
CTAATTAAATAACCTCAGTCACCTTGTGCAAGATTC: 496 a.u.
TGTACGAAGCTATAAAACGTGACTATAGTAGTTAGG: 2520 a.u.
CTATACAAGTCGTCGTCCGTGACATAGGATCAGTTC: 646 a.u.
CTAGTATATATAAATGTCGTGATGCTTCTATGCTTC: 634 a.u.

Block 3
Target: Histone acetyltransferase KAT6A, winged helix 2, GST fusion (KAT6A, Homo sapiens, UniProt Q92794, residues 85-181)
Technique: protein binding microarray
Form: double-stranded DNA, one strand shown
Medium: in vitro
Tested at: not given
Setting: 8-mer, flanks averaged, mean of 2 arrays, mostly near background
Baseline: not given
Direction: higher = stronger binding
Quantity: E-score
Target sequence (chain): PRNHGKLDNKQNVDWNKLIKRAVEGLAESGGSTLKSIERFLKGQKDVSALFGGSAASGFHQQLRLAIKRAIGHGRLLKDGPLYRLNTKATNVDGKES
GCGAAGTA: -0.00277
CTGTGTAA: 0.141
GACACAAA: 0.21
CAGACTGG: -0.0348
CTTTTTGA: -0.0321
GTAACGGA: 0.057
AAGTACTG: -0.106
CTCTCCCC: 0.0858
CCCTGGAA: -0.123
AACTCAAC: 0.0442
CACGGCTA: 0.0628
GACCGAGA: 0.112
ACGACAGA: -0.0131
CAGCATAC: -0.0393
CATCGATG: -0.139
ACTGCACT: -0.00999

Block 4
Target: Max-binding protein MNT, bHLH-zipper, MAX partner unstated (MNT, Homo sapiens, UniProt Q99583, residues 220-300)
Technique: protein-binding microarray
Form: double-stranded DNA, one strand shown
Medium: in vitro
Tested at: not given
Setting: k-mer, scored over probes, only values ≥0.25
Direction: higher = stronger binding
Quantity: E-score
Target sequence (chain): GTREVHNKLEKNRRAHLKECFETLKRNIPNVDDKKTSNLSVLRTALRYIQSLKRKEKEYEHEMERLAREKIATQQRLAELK
TCGTGCAA: 0.252
CCATGCTC: 0.339
GCACGTTA: 0.394
AGCATGCC: 0.384
CCATGGCA: 0.303
AGCACGTC: 0.26
ACGTGCAC: 0.469

Mixed results
PhoQ, residues 284 288 289 292 302 303 QWQEDG
fold induction (PhoP, residues 12 14 15 18 19 AQCLL (Escherichia coli, UniProt P23836); Sort-seq, measured: YFP reporter; E. coli; PhoQ-PhoP variant library, together with: 10 µM Mg2+; baseline: high Mg2+ state, higher = stronger signaling): 1.68

Excerpt of the above (block 1):
GCAGGAAGUAAAAACAAAUGGAAAUGCUUCGGAUAGUGGCAGCGGUGGGGGUUGCUAAGGAAAGGGUGGGAUGGGAGUGGGUAAAGAGUU: 1.05
UCAAGUCCUGUGCUACACAUCGUAUGUACCGAAUCGGGGUUGGGUUGGGUUGGGGAAAGUAUUAUGUUACGCCGUUCGGAUCUGCACUUC: 0.942
CCUCAAGUCCUGUGCUACACAUCGUAUGUACCGAAUCGGGGCGGGCGGCGGGAAAGUAUUAUGUUACGCCGUUCGGAUCUGCACUUCCAG: 0.409
